Assay results from different studies.
Protocols differ between the studies behind these lines. Several values in a cell are separate wells, animals, samples, runs or records.
UniProt P05771, sequence (whole entry, looked up): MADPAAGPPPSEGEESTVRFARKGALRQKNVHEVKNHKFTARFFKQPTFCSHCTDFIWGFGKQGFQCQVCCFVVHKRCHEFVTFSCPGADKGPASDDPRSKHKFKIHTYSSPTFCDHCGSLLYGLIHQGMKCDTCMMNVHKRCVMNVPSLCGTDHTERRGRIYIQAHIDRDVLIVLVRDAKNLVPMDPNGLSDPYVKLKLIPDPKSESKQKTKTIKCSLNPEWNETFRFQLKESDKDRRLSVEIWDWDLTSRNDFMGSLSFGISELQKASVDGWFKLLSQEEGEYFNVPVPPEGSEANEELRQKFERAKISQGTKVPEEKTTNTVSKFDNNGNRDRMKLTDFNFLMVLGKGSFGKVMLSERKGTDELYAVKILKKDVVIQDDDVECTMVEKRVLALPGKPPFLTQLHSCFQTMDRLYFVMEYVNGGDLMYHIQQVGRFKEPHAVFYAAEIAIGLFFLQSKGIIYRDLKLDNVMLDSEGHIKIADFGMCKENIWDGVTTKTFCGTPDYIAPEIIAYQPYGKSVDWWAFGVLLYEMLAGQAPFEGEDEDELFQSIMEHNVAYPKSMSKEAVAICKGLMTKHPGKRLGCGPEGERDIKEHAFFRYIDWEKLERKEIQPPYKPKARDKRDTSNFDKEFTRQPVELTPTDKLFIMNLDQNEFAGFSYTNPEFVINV

CC1(C)[C@H](NC(=O)/C(=N\OCc2c(Cl)cccc2Cl)c2nsc(N)n2)C(=O)N1OS(=O)(=O)O
MIC (Enterobacter cloacae; agar dilution; ATCC 43560, susceptible): 4 µg/mL

CC(C)C[C@H](NC(=O)[C@H](Cc1ccc(O)cc1)NC(=O)[C@@H](CCCNC(=N)N)NC(=O)[C@@H](CO)NC(=O)[C@H](Cc1ccccc1)NC(=O)[C@H](CC1CCCCC1)NC(=O)[C@H](CC(=O)O)NC(=O)CN1CCN(CC(=O)O)CCN(CC(=O)O)CCN(CC(=O)O)CC1)C(=O)N[C@@H](Cc1c[nH]c2ccccc12)C(=O)N[C@@H](CO)C(=O)O [copper-64 labelled]
activity concentration (human, pancreas; concentration not given, 1 h): 5630 Bq/mL and 7550 Bq/mL and 7380 Bq/mL and 6180 Bq/mL and 7230 Bq/mL and 4570 Bq/mL

COc1cc(C(=O)O)ccc1NC(=O)c1ccc(NC(=O)c2ccc(NC(=O)[C@H](Cc3c[nH]nn3)NC(=O)c3ccc(NC(=O)/C(C)=C/c4ccc(O)cc4)cc3)cc2)cc1O
MIC (Enterococcus faecium; broth microdilution; ciprofloxacin-sensitive): 32 µg/mL

CC1(C)C(NC(=O)C(=NOC2(C(=O)O)CC2)c2csc(N)n2)C(=O)N1OS(=O)(=O)O (stereo not drawn)
MIC (Klebsiella pneumoniae; agar dilution; ATCC 700603, ESBL-producing): 4 µg/mL

CCOc1c(NC(=O)c2ccc(NC(=O)c3ccc(NC(=O)[C@H](Cc4c[nH]nn4)NC(=O)c4ccc(NC(=O)/C(C)=C/c5ccc(O)cc5)cc4)cc3)c(OCC)c2O)ccc(C(=O)O)c1O
MIC (Enterococcus faecium; broth microdilution; ciprofloxacin-resistant): 32 µg/mL

CN[C@H](CC(C)C)C(=O)N[C@H]1C(=O)N[C@@H](CC(N)=O)C(=O)N[C@H]2C(=O)N[C@H]3C(=O)N[C@H](C(=O)N[C@H](C(=O)O)c4cc(O)cc(O)c4-c4cc3ccc4O)[C@H](O)c3ccc(c(Cl)c3)Oc3cc2cc(c3O[C@@H]2O[C@H](CO)[C@@H](O)[C@H](O)[C@H]2O[C@H]2C[C@](C)(NCc3ccc(-c4ccc(Cl)cc4)cc3)[C@H](O)[C@H](C)O2)Oc2ccc(cc2Cl)[C@H]1O
MIC (Enterococcus faecium; VanA VRE ATCC BAA-2317; added: LTA 100 µg/mL): 5 µg/mL

Nc1ncc(-c2cc(-c3cnn(CC(F)(F)F)c3)ncc2F)nc1C(=O)NC1CNCC(F)C1 (stereo not drawn)
remaining binding (CHEK2 human; KINOMEscan; 1 µM; relative to: control): 8%

NC[C@@H]1O[C@H](O[C@H]2[C@@H](O)[C@H](O[C@@H]3[C@@H](O)[C@H](N)C[C@H](N)[C@H]3O[C@H]3O[C@H](CO)[C@@H](OCCCO)[C@H](O)[C@H]3N)O[C@@H]2CO)[C@H](N)[C@@H](O)[C@@H]1O
MIC (Mycolicibacterium smegmatis; microbial growth, broth dilution; 72 h): 64 µg/mL

CC[C@H](C)[C@@H]1NC(=O)[C@@H]([C@@H](C)O)NC(=O)CNC(=O)[C@H](CC(=O)O)NC(=O)CNC(=O)[C@H](CC(=O)O)NC(=O)CNC(=O)[C@H]2CCCCN2C(=O)[C@@H](NC(=O)[C@H](CC(=O)O)NC(=O)/C=C/CCCCCCCCCC(C)C)CNC(=O)[C@@H]2CCCN2C1=O
MIC (Enterococcus; broth microdilution; VRE 155, Mueller-Hinton broth, Mg2+ 10 mg/L; 16 h, added: Ca2+ 1.0 mM): 8 µg/mL

C=C(NC(=O)c1csc(-c2nc3c(cc2O)-c2nc(cs2)C(=O)NC(C(C)O)C(=O)NC(=C(C)OC)c2nc(cs2)C(=O)NC2c4nc(cs4)C(=O)NC(COC(=O)c4c5c6c(cccc6n4O)COC(=O)C(OC4CC(C)(O)C(N(C)C)C(C)O4)C2OC5)c2nc-3cs2)n1)C(N)=O (stereo not drawn)
MIC (Enterococcus faecium; -9, vancomycin-intermediate): 0.0078 µg/mL

COc1c(NC(=O)c2ccc(NC(=O)c3ccc(NC(=O)[C@H](CC#N)NC(=O)c4ccc(NC(=O)/C(C)=C/c5ccc(O)cc5)cc4)cc3)c(OC)c2O)ccc(C(=O)O)c1O
MIC (Salmonella enterica; microbial growth, broth dilution): 0.5 µg/mL

CCCCCCC#Cc1cncc(-c2nnc(SCc3ccc(Cl)cc3)n2C)c1
MIC (Enterobacter cloacae; microbial growth, broth dilution; DSM30054): > 64 µg/mL

COC1CN([C@H]2CC[C@H]([C@@]3(C)Oc4c(Cl)cc(C(=O)NCc5c(SC)cc(C)[nH]c5=O)c(C)c4O3)CC2)C1
log2 fold change (RNA-seq, item: RASL10A mouse homolog; mouse, HT-1376 xenograft, whole blood; dose not given; relative to: vehicle): 0.184

COc1nc(C(=O)Nc2ccc(C(=O)O)nc2OC)ccc1NC(=O)c1ccc(NC(=O)[C@H](Cc2c[nH]nn2)NC(=O)c2ccc(NC(=O)/C(C)=C/c3ccc(O)cc3)cc2)cc1
MIC (Enterococcus faecium; broth microdilution; ciprofloxacin-sensitive): 2 µg/mL

COc1cccc(OC)c1C(=O)N[C@@H]1C(=O)N2[C@@H]1SC(C)(C)[C@@H]2C(=O)O
MIC (Salmonella enterica; microbial growth, broth dilution; TYPHIMURIUM): > 128 µM

Cc1nn(-c2cccc(N)c2)c(=O)c2cnc(Nc3ccc(N4CCNCC4)cc3)nc12
IC50 (Protein kinase C beta type (PRKCB, Homo sapiens, UniProt P05771); kinase activity, inhibitor, SelectScreen kinase profiling): 2730 nM

CCN(CC)CC#CCNc1ccnc2cc(Cl)ccc12
revertants (Salmonella typhimurium; mini-Ames test; TA1535; 125.0 µg/well, with rat liver S9): 2 revertants/well and 6 revertants/well

CC1(C)[C@H](NC(=O)/C(=N\OCc2c(Cl)cccc2Cl)c2csc(N)n2)C(=O)N1OS(=O)(=O)O
MIC (Enterobacter cloacae; agar dilution; ATCC 43560, susceptible): 1 µg/mL

COc1c(NC(=O)c2ccc(NC(=O)[C@H](Cc3c[nH]nn3)NC(=O)c3ccc(NC(=O)/C(C)=C/c4ccc(O)cc4)cc3)cc2)ccc(C(=O)Nc2ccc(C(=O)O)c(O)c2)c1O
MIC (Enterococcus faecium; broth microdilution; ciprofloxacin-sensitive): 2 µg/mL

CC1OCC2OC(OC3C(N)CC(N)C(O)C3OC3OC(CO)C(OC4OC(CN)C(O)C(O)C4N)C3O)C(N)C(O)C2O1 (stereo not drawn)
MIC (Mycolicibacterium smegmatis; microbial growth, broth dilution; 72 h): 32 µg/mL

CC(=O)NC[C@H]1CN(c2ccc(N3CCN(C(=O)CN)CC3)c(F)c2)C(=O)O1
MIC (Salmonella enterica; microbial growth, broth dilution; TYPHIMURIUM): 64 µM

CO[C@H]1/C=C/O[C@@]2(C)Oc3c(C)c(O)c4c(c3C2=O)C2=NC3(CCN(CC(C)C)CC3)NC2=C(NC(=O)/C(C)=C\C=C\[C@H](C)[C@H](O)[C@@H](C)[C@@H](O)[C@@H](C)[C@H](OC(=O)c2cccc(F)c2)[C@@H]1C)C4=O
MIC (Mycobacteroides abscessus; Bamboo clinical isolate; 90% growth inhibition): 0.068 µM

CCCCCO[C@H]1[C@H](O)[C@@H](N)[C@@H](O[C@H]2[C@H](O[C@@H]3O[C@H](CO)[C@@H](O[C@H]4O[C@@H](CN)[C@@H](O)[C@H](O)[C@H]4N)[C@H]3O)[C@@H](O)[C@H](N)C[C@@H]2N)O[C@@H]1CO
MIC (Mycolicibacterium smegmatis; microbial growth, broth dilution; 72 h): ≥ 256 µg/mL

C=CCO/N=C(\C(=O)N[C@@H]1C(=O)N(OS(=O)(=O)O)C1(C)C)c1csc(N)n1
MIC (Enterobacter cloacae; agar dilution; ATCC 43560, susceptible): 0.25 µg/mL

C[C@@H]1C(=O)O[C@@H](C)/C=C/C=C\[C@@H](C)[C@@H]2C=C[C@@H]3C[C@@]4(C)O[C@H]4[C@@H](C)[C@H]3[C@@H]2C(=O)C(Cl)(Cl)C1=O
MIC (Staphylococcus aureus; MRSA clinical isolate; resistant: OXA,CIP,ERY,GEN,LVX,MXF,SXT,TOB): 0.1 µg/mL

Cc1ncsc1-c1ccc(C(C)NC(=O)C2CC(O)CN2C(=O)C(NC(=O)CCCCCCCCCCN2CCCC(Nc3ncc(Cl)c(Nc4ccccc4S(=O)(=O)C(C)C)n3)C2)C(C)(C)C)cc1 (stereo not drawn)
log2 fold change (22Rv1; RNA-seq, item: USP54 mRNA; concentration not given; relative to: DMSO): -1.01

CC1(C)C(NC(=O)C(=NOCC(=O)N2CC3CCCC3C2C(=O)O)c2csc(N)n2)C(=O)N1OS(=O)(=O)O (stereo not drawn)
MIC (Enterobacter cloacae; agar dilution; ATCC 43560, susceptible): 2 µg/mL

Cc1c(CN(C)C(=O)/C=C/c2cnc3c(c2)CC(N)C(=O)N3)oc2ccccc12 (stereo not drawn)
MIC (Enterobacter cloacae; microbial growth, broth dilution; BAA2341): 8 µg/mL

CN[C@H](CC(C)C)C(=O)N[C@H]1C(=O)N[C@@H](CC(N)=O)C(=O)N[C@H]2C(=O)N[C@H]3C(=O)N[C@H](C(=O)N[C@H](C(=O)O)c4cc(O)cc(O)c4-c4cc3ccc4O)[C@H](O)c3ccc(c(Cl)c3)Oc3cc2cc(c3O[C@@H]2O[C@H](CO)[C@@H](O)[C@H](O)[C@H]2O[C@H]2C[C@](C)(N)[C@H](O)[C@H](C)O2)Oc2ccc(cc2Cl)[C@H]1O
MIC (Staphylococcus epidermidis; microbial growth, broth dilution; 12228): < 1 µM

CC(=O)NCCCCCNc1nc(NCCCCCCN(C)C)c2cc(NC(=O)/C=C/CN(C)C)ccc2n1
remaining signal (Histone-lysine N-methyltransferase SETDB1 (SETDB1, Homo sapiens, UniProt Q15047); cell-free assay, inhibitor, FP; 31.25 nM): 109%

C=CC(=O)Nc1cccc(Cn2ncc3cnc(Nc4cnn(CCOC)c4)nc32)c1
percent of control (MYLK human; binding, KINOMEscan; 100 nM; lower = stronger binding): 100%

CC1(C)C(NC(=O)C(=NOC2(C(=O)O)CCC2)c2csc(N)n2)C(=O)N1OS(=O)(=O)O (stereo not drawn)
MIC (Enterobacter cloacae; agar dilution; CDC 1000654): 2 µg/mL

COCO[C@H]1[C@H](O)[C@@H](N)[C@@H](O[C@H]2[C@H](O[C@@H]3O[C@H](CO)[C@@H](O[C@H]4O[C@@H](CN)[C@@H](O)[C@H](O)[C@H]4N)[C@H]3O)[C@@H](O)[C@H](N)C[C@@H]2N)O[C@@H]1CO
MIC (Mycolicibacterium smegmatis; microbial growth, broth dilution; 72 h): 16 µg/mL

COc1c(NC(=O)c2ccc(NC(=O)c3ccc(NC(=O)[C@H](Cc4c[nH]nn4)NC(=O)c4ccc(NC(=O)/C(C)=C/c5ccc(O)cc5)cc4)cc3)c(OC)c2O)ccc(C(=O)O)c1O
MIC (Enterococcus faecium; broth microdilution; ciprofloxacin-resistant): 64 µg/mL

CC1(C)[C@H](NC(=O)/C(=N\OCC(=O)N2CCC[C@@H]2C(=O)O)c2nsc(N)n2)C(=O)N1OS(=O)(=O)O
MIC (Enterobacter cloacae; agar dilution; ATCC 43560, susceptible): 1 µg/mL

CCOc1c(NC(=O)c2ccc(NC(=O)[C@H](Cc3c[nH]nn3)NC(=O)c3ccc(NC(=O)/C(C)=C/c4ccc(O)cc4)cc3)cc2)ccc(C(=O)Nc2ccc(C(=O)O)c(O)c2OC)c1O
MIC (Enterococcus faecium; broth microdilution; ciprofloxacin-sensitive): 0.063 µg/mL

CC1(C)[C@H](NC(=O)/C(=N\OC2(C(=O)O)CCCCC2)c2csc(N)n2)C(=O)N1OS(=O)(=O)O
MIC (Enterobacter cloacae; agar dilution; ATCC 43560, susceptible): 1 µg/mL

COc1cc(C(=O)Nc2ccc(C(=O)O)c(O)c2OC)ccc1NC(=O)c1ccc(NC(=O)[C@H](Cc2c[nH]nn2)NC(=O)c2ccc(NC(=O)/C(C)=C/c3ccc(O)cc3)cc2)cc1
MIC (Enterococcus faecium; broth microdilution; ciprofloxacin-resistant): 8 µg/mL

CCCCCCCCCCCCCCCCCCn1cc(CN(CCC(=O)NCCN(CCC(=O)NCCN(CCC(=O)NCCN(C)C)CCC(=O)NCCN(C)C)CCC(=O)NCCN(CCC(=O)NCCN(C)C)CCC(=O)NCCN(C)C)CCC(=O)NCCN(CCC(=O)NCCN(CCC(=O)NCCN(C)C)CCC(=O)NCCN(C)C)CCC(=O)NCCN(CCC(=O)NCCN(C)C)CCC(=O)NCCN(C)C)nn1
MIC (Salmonella enterica; microbial growth, broth dilution; ATCC13076 ENTERITIDIS; 18 h): 6 µg/mL
